# Measured values of several laboratories.
# Compare with care: the assays were run in different laboratories.
SMILES,test,test system,conditions,how to read,quantity,result
CC/C=C\C/C=C\C/C=C\C/C=C\C/C=C\C/C=C\CCC(=O)Nc1ccn(C2OC(CO)C(O)C2(F)F)c(=O)n1 (centres unmarked),,octanol,,,stability time,≥ 18 h
Oc1ccc2ccccc2c1/N=N/c1ccccc1,,rat whole blood extract,"0.5 µg/L, 30 days, -20 °C, long-term storage",,stability deviation,0.8%
CC[C@H](C)[C@H](NC(=O)[C@H](N)Cc1ccc(O)cc1)C(=O)N[C@H]1CSSC[C@@H](C(=O)N(C)[C@H](C(N)=O)[C@@H](C)CC)NC(=O)[C@H](CCCNC(=N)N)NC(=O)[C@H](Cc2c[nH]cn2)NC(=O)[C@H](C)NC(=O)CN(C)C(=O)[C@H](Cc2c[nH]c3ccccc23)NC(=O)[C@H](CC(=O)O)NC(=O)[C@H](CCC(N)=O)NC(=O)[C@H](Cc2cn(C)c3ccccc23)NC(=O)[C@H](C(C)C)NC1=O,,"human plasma, SPE extract",room temperature and 4 °C,,stability time,≥ 48 h
COC(=O)/C=C/C(=O)c1ccc(OC)cc1,,rat plasma,"15 d, -70 °C",,stability,stable
Oc1ccc2ccccc2c1/N=N/c1ccc(/N=N/c2ccccc2)cc1,,rat whole blood extract,"0.5 µg/L, 30 days, -20 °C, long-term storage",,stability deviation,2%
C#CCN(CCCNC(=O)CCCCC[N+]1=C(/C=C/C2=C(Cl)C(=C/C=C3\N(CCCCCC(=O)[O-])c4ccccc4C3(C)C)/CCC2)C(C)(C)c2ccccc21)CCCOc1ccc(Cl)cc1Cl,,mouse plasma,4 °C,,stability time,≥ 4 h
Cc1ccc(/N=N/c2c(O)ccc3ccccc23)c(C)c1,,rat whole blood,"5.0 µg/L, 30 days, -20 °C, long-term storage",,stability deviation,-0.3%
CO[C@@H](C[C@H]1C(C)=CC[C@@H]2[C@]3(C)C[C@H](O[C@@H]4O[C@@H](C)[C@H](O)[C@@H](O)[C@H]4O)[C@@H](O)C(C)(C)[C@H]3CC[C@]21C)[C@H](N)C(=O)O,,simulated gastric fluid with pepsin,"1 µM, pH 1.2, 37 °C",,stability time,> 4 h
CCCC[P+](CCCC)(CCCC)CCCC.Cc1ccc(S(=O)(=O)[N-]C(=O)NN2CC3CCCC3C2)cc1 (centres unmarked),HPLC,simulated gastric fluid,"pH 1, 37 °C",,stability time,6 h
Cn1cc[n+](C)[c]1[Ir-3]123([c]4n(C)cc[n+]4C)[n]4c5ccc4C(c4c(F)c(F)c(F)c(F)c4F)=C4C=CC(=[N+]41)C(c1c(F)c(F)c(F)c(F)c1F)=c1ccc([n]12)=C(c1c(F)c(F)c(F)c(F)c1F)C1=[N+]3C(=C5c2c(F)c(F)c(F)c(F)c2F)C=C1.O=S(=O)([O-])C(F)(F)F,,CDCl3,,,stability time,72 h
[2H]C([2H])([2H])n1c(C(C)(C)NC(=O)c2nnc(C)o2)nc(C(=O)NCc2ccc(F)cc2)c(O)c1=O,,methanol,"1000 µg/mL, 25 °C",stable up to,stability in stock solution,≤ 8 h

# For quick reference, copied from above:
SMILES,test,test system,conditions,how to read,quantity,result
CC/C=C\C/C=C\C/C=C\C/C=C\C/C=C\C/C=C\CCC(=O)Nc1ccn(C2OC(CO)C(O)C2(F)F)c(=O)n1 (centres unmarked),,octanol,,,stability time,≥ 18 h
Oc1ccc2ccccc2c1/N=N/c1ccccc1,,rat whole blood extract,"0.5 µg/L, 30 days, -20 °C, long-term storage",,stability deviation,0.8%
